{"data": "Measurements collected from several papers", "note": "A part holds a random share of what one study measured. Substitutions count along the parent as printed."}
{"data": "Series 1", "target": "PABPC1L2, full length, GST fusion (mouse, UniProt A0ABA7IW68)", "method": "RNAcompete", "form": "RNA", "medium": "in vitro", "concentration": "20 nM", "notes": "7-mer, probes averaged, single round", "reference": "mean of 7-mers", "reading": "higher = stronger binding", "Residues (chain)": "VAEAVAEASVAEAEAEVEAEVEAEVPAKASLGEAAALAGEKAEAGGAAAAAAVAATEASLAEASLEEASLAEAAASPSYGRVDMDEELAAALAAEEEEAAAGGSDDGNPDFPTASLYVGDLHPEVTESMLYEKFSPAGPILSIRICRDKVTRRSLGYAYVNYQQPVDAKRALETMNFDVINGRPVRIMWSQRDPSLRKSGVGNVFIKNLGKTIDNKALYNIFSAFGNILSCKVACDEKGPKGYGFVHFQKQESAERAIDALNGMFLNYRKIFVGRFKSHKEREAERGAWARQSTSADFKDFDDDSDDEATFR"}
{"Oligonucleotide": "CAAUCCU", "7-mer Z-score": -0.249}
{"Oligonucleotide": "GCGGCUC", "7-mer Z-score": 0.00798}
{"Oligonucleotide": "CCGGUCC", "7-mer Z-score": -0.369}
{"Oligonucleotide": "UUGUAAG", "7-mer Z-score": -0.0718}
{"Oligonucleotide": "UAGGGAA", "7-mer Z-score": 0.146}
{"Oligonucleotide": "AUAUUAC", "7-mer Z-score": -0.0736}
{"Oligonucleotide": "ACGGACA", "7-mer Z-score": 0.303}
{"Oligonucleotide": "CUCUAUC", "7-mer Z-score": -0.258}
{"data": "Series 2", "target": "RING finger protein unkempt homolog, zinc fingers 1-6, GST-SBP tag (UNK, Homo sapiens, UniProt Q9C0B0, residues 30-357)", "method": "RNA Bind-n-Seq", "form": "RNA", "medium": "in vitro", "concentration": "not given", "notes": "RNA with constant flanks, human and mouse sites, ends assumed", "reference": "input RNA pool", "reading": "higher = stronger binding", "shared flanks, not repeated": "GGGAGUUCUACAGUCCGACGAUC … CAACAGAGGAUUGAGCAUCA", "Residues (chain)": "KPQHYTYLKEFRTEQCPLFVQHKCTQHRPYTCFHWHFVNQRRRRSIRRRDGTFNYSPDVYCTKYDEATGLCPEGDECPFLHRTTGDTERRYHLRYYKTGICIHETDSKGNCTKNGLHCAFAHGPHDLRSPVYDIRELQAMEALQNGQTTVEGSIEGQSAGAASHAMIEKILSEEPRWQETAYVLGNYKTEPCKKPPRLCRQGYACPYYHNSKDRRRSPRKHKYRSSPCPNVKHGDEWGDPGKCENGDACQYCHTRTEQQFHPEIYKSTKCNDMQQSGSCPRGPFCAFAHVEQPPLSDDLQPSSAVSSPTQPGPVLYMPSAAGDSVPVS"}
{"Oligonucleotide": "GAUUGUUGAAUUGCCAAAGAGUUUGGUUCACGAGCUGAAGCUCCCAUUCCAUGGAUCCCUUGGGUGCACCUUCCCAGUUUGUGGAUGUGGAUACCCUGCUAAGCUGGGGCGACUCGUACG", "bound/input enrichment": "0.263 ratio"}
{"Oligonucleotide": "GAUUUUGAGACGGAGCACAAAUUGGACCCUGUAUUUGAUUCUCCACGGAUGUCCCGCCGUAGUUUGCGCCUGGCCACGACAGCAUGCACCCUGGGGGAUGGUGAGGCUGUGGGUGCCGAC", "bound/input enrichment": "0.363 ratio"}
{"Oligonucleotide": "AGGCCAUCCAUCAACAUGGAAGAGCUGGAUGACUCCUACCAGAAGGCCAUUGAACUCUUCUGUGUGUGCACUAAUGAGGAUCCUAAAGAUCGCCCGUCUGCUGCACACAUCGUUGAAGCU", "bound/input enrichment": "0.0796 ratio"}
{"Oligonucleotide": "UGUACAAAUCCUAUAACACCUCUUUGUACACAACCUGACCAGGUUAUUAAAGGGGGUGCUAGUAUUAUUCAGUGCCACAUUCUUAAUGAUAAGAGACAUAUAUUAACCAAAGAUACCAAU", "bound/input enrichment": "2.42 ratio"}
{"Oligonucleotide": "AAUAUCAUCCCUAGUACUUUUUUGCCUAAACAAGAAGGACCUUUUUUCUUGGACUUUAAUAGUACUGUCCCCAUCAAGACAACACAACUCCAAUGAUUGAGAACUCUCAGCUAUUACUGG", "bound/input enrichment": "0.564 ratio"}
{"Oligonucleotide": "AGACUUUCCAGCUCAGAGAGUGAAGAGAGCUUUAUGUCCAAGAACUCUGAAGAUGAUGAGCUAACAAAAGAAUCGAAGCGAUCUGUUCGAAAACGGGGCCGAAGCACAGAUGACUAUUCA", "bound/input enrichment": "0.125 ratio"}
{"Oligonucleotide": "AAAAUCAAAAACAUUUUCAUAUAUACCAGAGUACUGUAAAAUCUAGGUUUUUUUCAACAUUAGCAGUAAAUUGAGCACUGUUUACUGUUUCAUUGUACCAUGAAACCAUUUGAUUUUUAC", "bound/input enrichment": "0.468 ratio"}
{"Oligonucleotide": "AUGUUUGAACGUGUUUCAGAUGUCAUGUGUUUAGUUUUUAUAUGUGUGUACAUAAUUAUAUAUAGAGAUAGACUUGUGUAUACACCUUCCACAAACACAUCCUCACGGAGAUACAUGUGC", "bound/input enrichment": "0.385 ratio"}
{"data": "Series 3", "target": "RNA binding protein fox-1 homolog 2, RRM domain, GST-SBP tag (RBFOX2, Homo sapiens, UniProt O43251-10, residues 100-194)", "method": "RNA Bind-n-Seq", "form": "RNA", "medium": "in vitro", "concentration": "365 nM", "notes": "natural RNA segment, single round, ends assumed", "reference": "no-protein control", "reading": "higher = stronger binding", "shared flanks, not repeated": "GGGAGUUCUACAGUCCGACGAUC … UGGAAUUCUCGGGUGCCAA", "Residues (chain)": "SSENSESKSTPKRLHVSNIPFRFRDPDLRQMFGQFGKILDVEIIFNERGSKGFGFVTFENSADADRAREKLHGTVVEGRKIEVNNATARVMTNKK"}
{"Oligonucleotide": "UGAGAUCGAUCUGUCCUGGCAGUUAACACGAUGUGCAACAGUGUGUUAGCAUGGAACAGAACGCUUUUCACAAAACAAAGGACUGUUUUACAAAUGAUUAUUCCGACAGU", "RBNS enrichment (R)": 0.283}
{"Oligonucleotide": "AUCACAGAUGCCAUUUCUGUUUUAUUGAUGAUUAUAUGAGACUUUUAAUACAUAAAUGAACGGGUACUGGUGCCUCUUUAUUUUUAAAAAUUUGAAGAAAAAGAGCCACC", "RBNS enrichment (R)": 0.466}
{"Oligonucleotide": "UCUUGGAAACUAUGACAUCAAAGAUAGACUUUUGCCUAAGUGGCUUAGCUGGGUCUUUCAUAGCCAAACUUGUAUAUUUAAAUUCUUUGUAAUAAUAAUAUCCAAAUCAU", "RBNS enrichment (R)": 0.451}
{"Oligonucleotide": "CUUUGUCAUAUACUCUGCAUCACUGUCAUACUCACAACUUCGUGAAUAAAGUUGUGUGCUUUAUUCGAGAUGCCUCCAUACCUGUGUUUCAUUUCUCGUUCCCUGGCUCC", "RBNS enrichment (R)": 0.525}
{"Oligonucleotide": "ACUGCGCCUGGAUUCUGCCAUUGCGACACAUUUUUGUGCCUUUCAGCCCCUGGUGUCUGCAGUGGGGGAUUUAAGGCACCCGCUUCCACUUCUUUCUUGUUUGGAGUUUU", "RBNS enrichment (R)": 0.299}
{"Oligonucleotide": "UUGUAAAAUUUAAACAUCGUAUGCGCAUAAAGAAAAAGGAAACAAGAAUUAGGGGAAAAUAACAUUUUCCAAAUAAUUAUAAAAAAUUGUCCUGUGUCUAUGUAUCUAUA", "RBNS enrichment (R)": 0.536}
{"Oligonucleotide": "GUGCAUUGGCAGUAAUUCACAAAUUAGUUGUUAUAUAAGUCUCUCUCAUCCCUUUCACACUAGAUUCUCAGACAUGAAUGAAUUUGUCGUUUGGAAGGAAAGCUGGGUAA", "RBNS enrichment (R)": 0.294}
{"Oligonucleotide": "UUUCCUCCACUGUACAAUGUCACAGACUAUCUCUAUCAUCAUUGCUUUGUGGCUGUUUCUGUUUUUUACUGUAUGUAACUGGUAGCUGAUUGUACUAGGAUUAAAAACAA", "RBNS enrichment (R)": 0.765}
{"data": "Mixed results", "starting sequence": "viral docking peptide; CKVKRKLFGSENI; partner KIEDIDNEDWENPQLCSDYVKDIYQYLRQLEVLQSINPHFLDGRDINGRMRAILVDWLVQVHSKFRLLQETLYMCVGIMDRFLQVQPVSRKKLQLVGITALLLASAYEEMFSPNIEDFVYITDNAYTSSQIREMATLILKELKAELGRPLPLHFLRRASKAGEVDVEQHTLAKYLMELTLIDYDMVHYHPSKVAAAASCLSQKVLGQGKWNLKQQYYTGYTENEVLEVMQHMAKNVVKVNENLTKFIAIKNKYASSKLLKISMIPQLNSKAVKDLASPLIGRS"}
{"Substitution": "F8L", "target": "CCNB2, cyclin fold, Cln2 fusion (human)", "test": "yeast growth competition, sequencing", "test system": "yeast", "setting": "weak parent motif", "how to read": "reference: not given, higher = stronger binding", "measurement": "normalised enrichment score", "value": 0.067}
{"note": "Excerpt of the above (series 2):"}
{"Oligonucleotide": "AGGCCAUCCAUCAACAUGGAAGAGCUGGAUGACUCCUACCAGAAGGCCAUUGAACUCUUCUGUGUGUGCACUAAUGAGGAUCCUAAAGAUCGCCCGUCUGCUGCACACAUCGUUGAAGCU", "bound/input enrichment": "0.0796 ratio"}
